Results pooled from the literature.
A part holds a random share of what one study measured.

Sample 1
Target: PABPC1L2, full length, GST fusion (mouse, UniProt A0ABA7IW68)
Technique: RNAcompete
Molecule type: RNA
Matrix: in vitro
Concentration: 20 nM
Setting: 7-mer, probes averaged, single round
Relative to: mean of 7-mers
Direction: higher = stronger binding
Construct (chain): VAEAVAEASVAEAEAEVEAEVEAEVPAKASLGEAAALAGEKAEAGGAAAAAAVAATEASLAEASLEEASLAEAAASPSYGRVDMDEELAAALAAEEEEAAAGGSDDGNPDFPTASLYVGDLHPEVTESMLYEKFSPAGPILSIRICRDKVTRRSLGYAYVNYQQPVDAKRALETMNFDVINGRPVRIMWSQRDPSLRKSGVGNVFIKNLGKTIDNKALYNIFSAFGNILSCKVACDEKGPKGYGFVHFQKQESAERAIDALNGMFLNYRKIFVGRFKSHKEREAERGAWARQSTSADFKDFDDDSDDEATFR
Oligonucleotide	7-mer Z-score
UUCAUCC	-0.485
AGCGCGA	-0.0373
UGUGCGA	-0.0718
ACAAUGA	0.249
GAGGGGU	0.137
UACACUA	-0.213
CCUGUGA	-0.226
GUGCUAU	-0.137
CUGGCGG	0.0442

Sample 2
Target: Protein max, full length (MAX, Homo sapiens, UniProt P61244-2, residues 1-151)
Technique: protein-binding microarray
Molecule type: double-stranded DNA, one strand shown
Matrix: in vitro
Concentration: not given
Setting: k-mer, scored over probes, only values ≥0.25
Direction: higher = stronger binding
Oligonucleotide	E-score
AGCACGCT	0.429
ACGAGCGT	0.288
ACACCGTG	0.317
GCGTGACC	0.42
CACGCTCA	0.327
AAGTCATG	0.297

Sample 3
Target: Interferon regulatory factor 5, full length, phosphomimetic (IRF5, Homo sapiens, UniProt Q13568-2, residues 1-514, K96S/S451D/S453D/S456D/S462D)
Technique: protein-binding microarray
Molecule type: double-stranded DNA, one strand shown
Matrix: in vitro
Concentration: 250 nM
Setting: 60-bp whole probe
Added: salmon DNA 0.4 mg/ml
Relative to: random background probes
Direction: higher = stronger binding
Shared flanks, not repeated: GCCTAGCAC … GTCTTGATTCGCTTGACGCTGCTG
Oligonucleotide	log fluorescence [z-score]
TTAGGTATAGGTTTCGGTTAGTGCTAG	8.55
TTAGAACTAGGGTATCGATTAGTGCTA	2.09
TCATACATTTATATCTTACTGTGCTAG	0.748
GACGAACTGAGTAGCGAGACGTGCTAG	-0.378
GACGGACTGTTTTTCCTGACGTGCTAG	-0.0805
TTAGGTATCGGTTTCGGGTAGTGCTAG	9.55

Single results of other studies
Molecule	target	test	system	setting	how to read	endpoint	value
PhoQ, residues 284 288 289 292 302 303 TTCLQL	PhoP, residues 12 14 15 18 19 LFHKL (Escherichia coli, UniProt P23836)	Sort-seq, refers to: YFP reporter	E. coli	PhoQ-PhoP variant library, added: 10 µM Mg2+	relative to: high Mg2+ state, higher = stronger signaling	fold induction	6.47

For quick reference, copied from above (sample 1):
Oligonucleotide	7-mer Z-score
UACACUA	-0.213
CCUGUGA	-0.226
